Measurements gathered from unrelated publications.
Compare with care: the assays were run in different laboratories. ± gives the spread as reported.

SMILES | system | setting | tissue uptake
CCCC[C@H](NC(=O)CCCCCCCNC(=O)c1ccc(NN)nc1)C(=O)N[C@H]1CC(=O)NCCCC[C@@H](C(N)=O)NC(=O)[C@H](Cc2c[nH]c3ccccc23)NC(=O)[C@H](CCCNC(=N)N)NC(=O)[C@@H](Cc2ccccc2)NC(=O)[C@H](Cc2c[nH]cn2)NC1=O [technetium-99m labelled] | C57 mouse, B16/F1 melanoma, urine | intravenous, 0.037 MBq, 0.5 h | 60.2 ± 4.46 %ID
N=C(N)NCCC[C@@H]1NC(=O)[C@H](CC(=O)NC23CNCCNCC(N)(CNCCNC2)CNCCNC3)NC(=O)[C@@H](Cc2ccccc2)NC(=O)[C@H](CC(=O)O)NC(=O)CNC1=O [copper-64 labelled] | Nu/Nu mouse, male, tumour-bearing, spleen | intravenous, 10 µCi, 2 h | 1.11 ± 0.19 %ID/g
N=C(N)NCCC[C@@H]1NC(=O)[C@H](CCCCNC(=O)CNC(=O)CNC(=O)CNC(=O)CC[C@H](NC(=O)c2ccc(NN=Cc3ccccc3S(=O)(=O)O)nc2)C(=O)NCC(=O)NCC(=O)NCC(=O)NCCCC[C@@H]2NC(=O)[C@@H](Cc3ccccc3)NC(=O)[C@H](CC(=O)O)NC(=O)CNC(=O)[C@H](CCCNC(=N)N)NC2=O)NC(=O)[C@@H](Cc2ccccc2)NC(=O)[C@H](CC(=O)O)NC(=O)CNC1=O [technetium-99m labelled] | athymic nu/nu mouse, female, U-87 MG glioma xenograft, muscle | intravenous, 120 min | 1.25 ± 0.1 %ID/g
CSCC[C@H](NC(=O)[C@H](CC(C)C)NC(=O)[C@H](Cc1c[nH]cn1)NC(=O)CNC(=O)[C@@H](NC(=O)[C@H](C)NC(=O)[C@H](Cc1c[nH]c2ccccc12)NC(=O)[C@H](CCC(N)=O)NC(=O)CCCCCNC(=O)CNC(=O)CNC(=O)CNC(=O)CSC(C)=O)C(C)C)C(N)=O [technetium-99m labelled] | Swiss mouse, lung | intravenous, 18.5 MBq, 90 min | 0.21 ± 0.03 %ID/g
N=C(N)NCCC[C@@H]1NC(=O)[C@H](CCCCNC(=O)CC[C@H](NC(=O)CCOCCOCCOCCOCCNC(=O)CN2CCN(CC(=O)O)CCN(CC(=O)O)CCN(CC(=O)O)CC2)C(=O)NCCCC[C@@H]2NC(=O)[C@@H](Cc3ccccc3)NC(=O)[C@H](CC(=O)O)NC(=O)CNC(=O)[C@H](CCCNC(=N)N)NC2=O)NC(=O)[C@@H](Cc2ccccc2)NC(=O)[C@H](CC(=O)O)NC(=O)CNC1=O [indium-111 labelled] | female athymic nude mice, kidney | intravenous, 3 µCi, 4 h, U-87 MG glioma xenograft | 3.44 ± 0.43 %ID/g
CCCC[C@H](NC(=O)COCCOCCNC(=O)c1ccc(NN)nc1)C(=O)N[C@H]1CC(=O)NCCCC[C@@H](C(N)=O)NC(=O)[C@H](Cc2c[nH]c3ccccc23)NC(=O)[C@H](CCCNC(=N)N)NC(=O)[C@@H](Cc2ccccc2)NC(=O)[C@H](Cc2c[nH]cn2)NC1=O [technetium-99m labelled] | C57 mouse, female, B16/F1 melanoma, pancreas | intravenous, 0.037 MBq, 2 h | 0.08 ± 0.06 %ID/g
N=C(N)NCCC[C@@H]1NC(=O)[C@H](CCCCNC(=O)CCOCCOCCOCCOCCNC(=O)CC[C@H](NC(=O)CCOCCOCCOCCOCCNC(=O)CC[C@H](NC(=O)CN2CCN(CC(=O)O)CCN(CC(=O)O)CCN(CC(=O)O)CC2)C(=O)NCCOCCOCCOCCOCCC(=O)N[C@@H](CCC(=O)NCCOCCOCCOCCOCCC(=O)NCCCC[C@@H]2NC(=O)[C@@H](Cc3ccccc3)NC(=O)[C@H](CC(=O)O)NC(=O)CNC(=O)[C@H](CCCNC(=N)N)NC2=O)C(=O)NCCOCCOCCOCCOCCC(=O)NCCCC[C@@H]2NC(=O)[C@@H](Cc3ccccc3)NC(=O)[C@H](CC(=O)O)NC(=O)CNC(=O)[C@H](CCCNC(=N)N)NC2=O)C(=O)NCCOCCOCCOCCOCCC(=O)NCCCC[C@@H]2NC(=O)[C@@H](Cc3ccccc3)NC(=O)[C@H](CC(=O)O)NC(=O)CNC(=O)[C@H](CCCNC(=N)N)NC2=O)NC(=O)[C@@H](Cc2ccccc2)NC(=O)[C@H](CC(=O)O)NC(=O)CNC1=O [indium-111 labelled] | female athymic nude mice, kidney | intravenous, 3 µCi, 0.5 h, U-87 MG glioma xenograft | 10.7 ± 1.79 %ID/g
CCCC[C@H](NC(=O)CNC(=O)CNC(=O)c1ccc(NN)nc1)C(=O)N[C@H]1CC(=O)NCCCC[C@@H](C(N)=O)NC(=O)[C@H](Cc2c[nH]c3ccccc23)NC(=O)[C@H](CCCNC(=N)N)NC(=O)[C@@H](Cc2ccccc2)NC(=O)[C@H](Cc2c[nH]cn2)NC1=O [technetium-99m labelled] | C57 mouse, B16/F1 melanoma-bearing, lung | intravenous, 4 h | 0.24 ± 0.04 %ID/g
N=C(N)NCCC[C@@H]1NC(=O)[C@H](CCCCNC(=O)CC[C@H](NC(=O)CCOCCOCCOCCOCCNC(=O)CC[C@H](NC(=O)CN2CCN(CC(=O)O)CCN(CC(=O)O)CCN(CC(=O)O)CC2)C(=O)NCCOCCOCCOCCOCCC(=O)N[C@@H](CCC(=O)NCCCC[C@@H]2NC(=O)[C@@H](Cc3ccccc3)NC(=O)[C@H](CC(=O)O)NC(=O)CNC(=O)[C@H](CCCNC(=N)N)NC2=O)C(=O)NCCCC[C@@H]2NC(=O)[C@@H](Cc3ccccc3)NC(=O)[C@H](CC(=O)O)NC(=O)CNC(=O)[C@H](CCCNC(=N)N)NC2=O)C(=O)NCCCC[C@@H]2NC(=O)[C@@H](Cc3ccccc3)NC(=O)[C@H](CC(=O)O)NC(=O)CNC(=O)[C@H](CCCNC(=N)N)NC2=O)NC(=O)[C@@H](Cc2ccccc2)NC(=O)[C@H](CC(=O)O)NC(=O)CNC1=O [indium-111 labelled] | female athymic nude mice, spleen | intravenous, 3 µCi, 1 h, U-87 MG glioma xenograft | 2.47 ± 0.66 %ID/g
CC(C)C[C@H](NC(=O)[C@H](Cc1ccc(O)cc1)NC(=O)[C@@H](CCCNC(=N)N)NC(=O)[C@@H](CO)NC(=O)[C@H](Cc1ccccc1)NC(=O)[C@H](CC1CCCCC1)NC(=O)[C@H](CC(=O)O)NC(=O)CCC(C(=O)O)N1CCCN2CCN(CCCN(CC(=O)O)CC2)CC1)C(=O)N[C@@H](Cc1c[nH]c2ccccc12)C(=O)N[C@@H](CO)C(=O)O (stereo partly shown) [copper-64 labelled] | female NMRI nude mice, blood | 22 h p.i. | 0.2 ± 0.1 %ID/g
